Assay results pooled from the literature.
Numbered parts are unrelated; each lists some results of a single study. Changes are numbered by the printed parent chain.

Block 1
Target: Histone acetyltransferase KAT6A, winged helix 1, GST fusion (KAT6A, Homo sapiens, UniProt Q92794, residues 1-85)
Method: protein binding microarray
Form: double-stranded DNA, one strand shown
Matrix: in vitro
Concentration: not given
Notes: 8-mer, flanks averaged, mean of 2 arrays, mostly near background
Baseline: not given
Reading: higher = stronger binding
Measurement: E-score
Construct (chain): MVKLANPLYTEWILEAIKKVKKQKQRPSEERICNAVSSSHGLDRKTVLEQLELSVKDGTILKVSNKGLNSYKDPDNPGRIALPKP
CTGTTTAC: -0.057
ACGAGTCG: -0.117
CCAAAAAC: -0.148
ACAAGCAG: -0.269
ACCGCGCG: 0.44
CCGGTATC: 0.29
CTACGATC: 0.0112

Block 2
Target: Interferon regulatory factor 5, full length, phosphomimetic (IRF5, Homo sapiens, UniProt Q13568-2, residues 1-514, S451D/S453D/S456D/S462D)
Method: protein-binding microarray
Form: double-stranded DNA, one strand shown
Matrix: in vitro
Concentration: 940 nM top
Notes: 60-bp whole probe
With: salmon DNA 0.4 mg/ml
Baseline: random background probes
Reading: higher = stronger binding
Measurement: fitted relative affinity
Constant ends, left off below: GCCTAGCAC … GTCTTGATTCGCTTGACGCTGCTG
TTTGGTCTCGGTATCGGTTAGTGCTAG: 9.03 z-score
CCACTTTTATTTTCAGTATTGTGCTAG: 2.22 z-score
GACGATTACAGACTGGAGACGTGCTAG: -0.609 z-score
GACGGACCGCTTTTCCTGACGTGCTAG: -0.532 z-score
TTAGAAATCAGTATCGATTAGTGCTAG: 5.16 z-score
CTTTAACTTATTCTCTACTTGTGCTAG: 1.79 z-score
GGCGGTTCCGGTTTCGGGACGTGCTAG: 5.51 z-score
AGTTGTTTTAAATTCTAATTGTGCTAG: 0.261 z-score
GACGGTTTCGGGTAACGGGACGTGCTA: 9.12 z-score

Block 3
Target: CCNB3, cyclin fold, Cln2 fusion (human)
Method: yeast growth competition, sequencing
Matrix: yeast
Notes: weak parent motif
Baseline: not given
Reading: higher = stronger binding
Measurement: normalised enrichment score
Starting sequence: SLBP docking peptide (human); ARYKRKLLINDFG; partner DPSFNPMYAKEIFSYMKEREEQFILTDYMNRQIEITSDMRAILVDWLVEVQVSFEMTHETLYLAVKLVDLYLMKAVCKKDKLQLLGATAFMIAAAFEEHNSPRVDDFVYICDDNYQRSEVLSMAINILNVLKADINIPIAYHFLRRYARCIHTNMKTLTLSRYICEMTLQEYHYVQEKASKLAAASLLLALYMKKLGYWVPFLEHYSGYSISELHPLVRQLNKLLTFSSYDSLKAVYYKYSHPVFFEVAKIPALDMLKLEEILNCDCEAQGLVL
ARYKRGLLINDFG [K6G]: 0.287
AVYKRKLLINDFG [R2V]: 0.179
ARYKRKLLINDFC [G13C]: 0.504
ARYKYKLLINDFG [R5Y]: -0.238
ARYKRKLPINDFG [L8P]: -0.0426
ARVKRKLLINDFG [Y3V]: 0.365
ARYLRKLLINDFG [K4L]: 0.329
ARYKRALLINDFG [K6A]: 0.375

Further values, each from its own experiment
PhoQ, residues 284 288 289 292 302 303 NSMLDC  fold induction (PhoP, residues 12 14 15 18 19 LWHSL (Escherichia coli, UniProt P23836); Sort-seq, item: YFP reporter; E. coli; PhoQ-PhoP variant library, with: 10 µM Mg2+; baseline: high Mg2+ state, higher = stronger signaling): 15.7
